# Results of several laboratories.
# Each numbered part is a random draw from the data of one study; scales do not carry over between parts. Substitutions count along the parent as printed.

# Series 1
# Target: ABI1, truncated, D143A, DHFR fusion (Arabidopsis thaliana)
# Technique: DHFR PCA, deep sequencing
# Medium: yeast
# Notes: methotrexate growth selection, single substitutions
# With: (+)-ABA 710 µM
# Reference: wild-type fitted maximum
# Reading: higher = stronger binding
# Starting sequence: PYL1, truncated, DHFR fusion (Arabidopsis thaliana); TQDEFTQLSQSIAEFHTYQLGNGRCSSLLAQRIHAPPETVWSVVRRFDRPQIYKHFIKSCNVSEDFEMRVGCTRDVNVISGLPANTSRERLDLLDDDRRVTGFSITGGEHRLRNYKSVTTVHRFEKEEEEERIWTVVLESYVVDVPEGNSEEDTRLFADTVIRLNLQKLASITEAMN; partner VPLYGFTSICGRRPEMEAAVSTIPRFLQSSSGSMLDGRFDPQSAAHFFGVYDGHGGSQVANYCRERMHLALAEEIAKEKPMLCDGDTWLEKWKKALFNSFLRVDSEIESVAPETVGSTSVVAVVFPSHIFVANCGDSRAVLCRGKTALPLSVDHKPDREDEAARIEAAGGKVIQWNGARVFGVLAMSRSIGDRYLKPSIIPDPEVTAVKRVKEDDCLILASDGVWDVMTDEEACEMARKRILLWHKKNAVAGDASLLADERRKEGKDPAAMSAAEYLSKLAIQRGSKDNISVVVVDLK
Substitution,relative binding score
E14I,81.9%
E152D,103%
K54M,-3.06%
A13W,93.9%
D3S,97.1%
T135S,111%
F5T,104%
S42M,99%
T120Y,14.5%
E14L,91.7%
R74W,-5.97%
L112T,23%
N114M,69.2%
E89M,-1.3%
V142D,86.1%
T154K,7.05%

# Series 2
# Target: RING finger protein unkempt homolog, zinc fingers 1-6, GST-SBP tag (UNK, Homo sapiens, UniProt Q9C0B0, residues 30-357)
# Chain of UniProt Q9C0B0 (30-357, looked up): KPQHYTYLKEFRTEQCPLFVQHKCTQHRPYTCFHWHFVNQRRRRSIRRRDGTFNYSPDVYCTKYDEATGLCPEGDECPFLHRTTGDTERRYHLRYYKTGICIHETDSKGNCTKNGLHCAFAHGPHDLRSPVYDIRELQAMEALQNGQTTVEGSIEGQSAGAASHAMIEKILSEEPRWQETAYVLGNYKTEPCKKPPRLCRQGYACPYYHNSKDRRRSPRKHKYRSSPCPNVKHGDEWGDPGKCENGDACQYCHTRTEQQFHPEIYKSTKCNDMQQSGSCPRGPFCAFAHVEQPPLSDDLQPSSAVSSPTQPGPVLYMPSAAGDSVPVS
# Technique: RNA Bind-n-Seq
# Form: RNA
# Medium: in vitro
# Tested at: not given
# Notes: RNA with constant flanks, human-mouse chimeric sites, ends assumed
# Reference: input RNA pool
# Reading: higher = stronger binding
# Shared flanks, not repeated: GGGAGUUCUACAGUCCGACGAUC … CAACAGAGGAUUGAGCAUCA
Sequence,bound/input enrichment [ratio]
UACUCAACUUUCUUUCCACAUUUUGAAUUCCAAGACAUUAUCCCUCCAGAUGACUUCCUAACGAGUGAUGAAGAGCAAGAUUUGGUUUUAUUUGGAACUAUGAGAGGACAAGUUGUUGGA,0.185
AACAUUUUGUCAAAUUGUUAUGUUCCUGUGAAACAAGUGAACACUCUGAUACACUUCAUUUAGUUGUACAUCUGUAUGAUAGAGAAAUGUAAAUAUGUUAAUCCAAGCAAUGUGUCACUU,0.28
UUACCCGAGAACGAGGAUGAGCUGGAGAGCACCAACAGGCGCUACACCAAGAGGGACUGCAGCACUUUUCUCAGAACUAGUGAGACGGGCAUCGUGGAUCAGGUUAUGGUCACUCUCAAC,0.203
ACUCAGAGAUCCACCUCCCAAAGUGCUGGGAGUAAAGGUGUGGCCACCACACCUAACUUCAUAGACAUAUAUUUUUUUUAAUAUGAAUCUUCCUGUUCGUCCAGGGAAGAAAGAUUUGUU,5.43
AGAAAGCAAAACUUGGAAAGAUUUAAGAAAGGAGACGUAAGAUUCUUGAUUUGCACAGAUGUAGCUGCUAGAGGGAUUGAUAUCCAUGGUGUUCCUUAUGUGAUCAACGUCACCCUGCCU,0.322
CAGCCUCAGAGCCCUGACUUCCUGGAUAUUACCAACCCUAAAGCGGUAUUAGAAAAUGCAUUGAGAAACUUCGCCUGUCUGACCACCGGAGAUGUGAUUGCUAUCAACUACAAUGAGAAG,0.551
CGCUGGCCCAAGCUGAUGGACUCUGAUCUUGAUCUCUUCUCAGGCACGUGUGCCUUCUCUUAGUUAUUGUUUUCGGGAUGUUAUGAAUCUCAGUACUGUGGUUUGAAAGCACCAGCUUUG,4.13
CUGGCACUCUAUCAGAUAUAUUAAUUUUUAAAUGUAGAUGUAAUUUUAAAAAUGAAUGGCUACUUUACACGUUUAACUAGGGUUUUACUACAUAUGUGUACAUAUGUAUAUAUAUAUAUA,9.84

# Series 3
# Target: RNA binding protein fox-1 homolog 2, RRM domain, GST-SBP tag (RBFOX2, Homo sapiens, UniProt O43251-10, residues 100-194)
# Technique: RNA Bind-n-Seq
# Form: RNA
# Medium: in vitro
# Tested at: 365 nM
# Notes: natural RNA segment, single round, ends assumed
# Reference: no-protein control
# Reading: higher = stronger binding
# Shared flanks, not repeated: GGGAGUUCUACAGUCCGACGAUC … UGGAAUUCUCGGGUGCCAA
# Residues (chain): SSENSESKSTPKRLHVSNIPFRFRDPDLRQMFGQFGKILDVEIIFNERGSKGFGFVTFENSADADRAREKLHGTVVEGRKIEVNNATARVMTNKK
Sequence,RBNS enrichment (R)
GCCAAGCAUUUGAACACUUUUUAUAUAAAAUUGUGUGAUGUCUCUUUAUGUCUGCUCUGAGCCUUAAAACACAGGUUGAAGAAGAAAAGAAAGGAAAAAAAAGUGAAAGU,0.718
UGGCUUCCGCAGCUACCGUCUGCACGGUGAGAGGGCACGGGCACACGGUUCGGGCUGGCGUGCAGCUCUCCCAGCCAGCCACGCUCUGCUCAGGCCUGGAAGUGAAAGCC,0.683
CUUUCCCAGUAACAUUCCUGAGUCUACUGUCCUUAUCUUAGUGUUGUACUUGCAUGACAUGGAUAUCUGGUAUCUGAGGACAAGUUCAUUCUUGUGUAUUUAAUAACAAA,6.53
AAAAUAUAUAUAUACACACAAGCACUAUUUUCUUAUGUCAUUUAUGACAUUUUUUAUCUGUAUACUUUUUUGAUGUGAUUGUUUUUUAACAUGCUAAAAGUAAUAAGUAU,1.68
AAAGGCUGCCCAGAAAAGGAAAAAUAGUUCCCCGCUUCCUGCCGAUGGACCGCAGUGCGCUCUGCUCUGGCGCUUUGUAACUCGCUCCUCCCUCUUCGGGGGCAGACCCC,0.334
UUAAUGUUUUGAUUUUUGUUUUCUGAAAUUGGAUUUUAUUUUAUUUUAUCUUAUAAUUUCAGUUCAUCUAAAUUGUGUGUUCUGUACAUGUGAUGUUUGACUGUACCAUU,2.88
AAGCCAUACUGGGCGGCAGCAGGAGCGACCAACUGAUCGCACACAUGCUUUGUUUGGAUAUGGAGUGAACACAAUUAUGUACCAAAUUUAACUUGGCAAACUUUCUAUUG,0.391
UUAUAGGGAAACAAGUGGAGCAGGGACGUGGCUUUAAUUGGAGCACUCGGCUGGGCUGCUUGGGGAGACUCUUCCGUGCGUUCUUCCUCUGGAUAGAACCACCACCUCCU,0.383

# Series 4
# Target: Histone acetyltransferase KAT6A, winged helix 2, GST fusion (KAT6A, Homo sapiens, UniProt Q92794, residues 85-181)
# Technique: protein binding microarray
# Form: double-stranded DNA, one strand shown
# Medium: in vitro
# Tested at: not given
# Notes: 8-mer, flanks averaged, mean of 2 arrays, mostly near background
# Reference: not given
# Reading: higher = stronger binding
# Target sequence (chain): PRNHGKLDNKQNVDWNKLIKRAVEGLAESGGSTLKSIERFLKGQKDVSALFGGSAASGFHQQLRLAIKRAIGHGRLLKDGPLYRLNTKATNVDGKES
Sequence,E-score
ATGGGTGA,-0.0862
GATGAATC,0.141
GCCGACGC,0.197
GCTATGGA,-0.207
ACGGAGGC,-0.0633
GCATCGTA,0.093
ACCGAGCT,0.0826
GTTTAAAA,0.0328
ACTCAAGG,0.112
AGCGTGAG,-0.209
CCAAGCCC,-0.0924
GAAGAGCA,0.0398
AATTATCC,-0.152
GTATTATA,0.124
ACCCCTTA,-0.0551
ACCTTCCA,-0.0877
GAAGGGAA,0.00607
AGAGCACC,0.0703
CTGTGGGC,0.138
AATTGCCT,0.0361
ACCTTACA,-0.0634
AGACCTGC,-0.117
GAGGAATA,0.121
ATATCCTG,0.039
CAATTGCC,-0.117

# A few entries again (series 2):
Sequence,bound/input enrichment [ratio]
UACUCAACUUUCUUUCCACAUUUUGAAUUCCAAGACAUUAUCCCUCCAGAUGACUUCCUAACGAGUGAUGAAGAGCAAGAUUUGGUUUUAUUUGGAACUAUGAGAGGACAAGUUGUUGGA,0.185
AACAUUUUGUCAAAUUGUUAUGUUCCUGUGAAACAAGUGAACACUCUGAUACACUUCAUUUAGUUGUACAUCUGUAUGAUAGAGAAAUGUAAAUAUGUUAAUCCAAGCAAUGUGUCACUU,0.28
UUACCCGAGAACGAGGAUGAGCUGGAGAGCACCAACAGGCGCUACACCAAGAGGGACUGCAGCACUUUUCUCAGAACUAGUGAGACGGGCAUCGUGGAUCAGGUUAUGGUCACUCUCAAC,0.203
ACUCAGAGAUCCACCUCCCAAAGUGCUGGGAGUAAAGGUGUGGCCACCACACCUAACUUCAUAGACAUAUAUUUUUUUUAAUAUGAAUCUUCCUGUUCGUCCAGGGAAGAAAGAUUUGUU,5.43
AGAAAGCAAAACUUGGAAAGAUUUAAGAAAGGAGACGUAAGAUUCUUGAUUUGCACAGAUGUAGCUGCUAGAGGGAUUGAUAUCCAUGGUGUUCCUUAUGUGAUCAACGUCACCCUGCCU,0.322
CAGCCUCAGAGCCCUGACUUCCUGGAUAUUACCAACCCUAAAGCGGUAUUAGAAAAUGCAUUGAGAAACUUCGCCUGUCUGACCACCGGAGAUGUGAUUGCUAUCAACUACAAUGAGAAG,0.551
CGCUGGCCCAAGCUGAUGGACUCUGAUCUUGAUCUCUUCUCAGGCACGUGUGCCUUCUCUUAGUUAUUGUUUUCGGGAUGUUAUGAAUCUCAGUACUGUGGUUUGAAAGCACCAGCUUUG,4.13
CUGGCACUCUAUCAGAUAUAUUAAUUUUUAAAUGUAGAUGUAAUUUUAAAAAUGAAUGGCUACUUUACACGUUUAACUAGGGUUUUACUACAUAUGUGUACAUAUGUAUAUAUAUAUAUA,9.84
